# Measured values gathered from unrelated publications.
# Each line is one published result; not all experiments were run side by side.
# Organism: Mycobacteroides abscessus
SMILES,test,test system,setting,how to read,MIC
Cc1ccc(NCC(=O)N[C@H]2CC[C@H](C)CC2)cc1,broth microdilution,,120 h,,inactive
CCCCCCC#Cc1cncc(-c2nnc(SCc3ccc([N+](=O)[O-])cc3)n2C)c1,,,,no activity below value,≥ 200 µM
O=C(CO/N=c1\cc2n(-c3ccc(Cl)cc3)c3ccccc3nc-2cc1Nc1ccc(Cl)cc1)NCc1ccc2c(c1)CCO2,bacterial growth,clinical isolate,,,> 30 µM
NCC[C@H](O)C(=O)N[C@@H]1C[C@H](N)[C@@H](O[C@H]2O[C@H](CN)[C@@H](O)[C@H](O)[C@H]2O)[C@H](O)[C@H]1O[C@H]1O[C@H](CO)[C@@H](O)[C@H](N)[C@H]1O,resazurin microtiter,ATCC 19977,,,2.1 µg/mL
O=C(CNc1ccccc1)NC1C2CC3CC(C2)CC1C3 (stereo not shown),broth microdilution,,120 h,,inactive
Nc1nc(N)c(OCCCOc2ccccc2CCC(=O)O)c(C2CCCCC2)n1,resazurin microtiter,ATCC 19977,,,1.5 µg/mL
CC(C)/N=c1\cc2n(-c3ccc(Cl)cc3)c3ccccc3nc-2cc1Nc1ccc(Cl)cc1,bacterial growth,clinical isolate,,,3.75 µM
CO[C@H]1/C=C/O[C@@]2(C)Oc3c(C)c(O)c4c(c3C2=O)C2=NC3(CCN(CC(C)C)CC3)NC2=C(NC(=O)/C(C)=C\C=C\[C@H](C)[C@H](O)[C@@H](C)[C@@H](O)[C@@H](C)[C@H](OC(C)=O)[C@@H]1C)C4=O,,clinical isolate Bamboo,,90% growth inhibition,1.1 µM
O=C(CO/N=c1\cc2n(-c3ccc(Cl)cc3)c3ccccc3nc-2cc1Nc1ccc(Cl)cc1)NCc1ccc(C(F)(F)F)cc1,bacterial growth,ATCC 19977,,,> 30 µM
CCCCCCC#Cc1cncc(-c2nnc(SCc3ccc(C#N)cc3)n2C)c1,,,,no activity below value,≥ 200 µM

# Some of these lines once more:
SMILES,test,test system,setting,how to read,MIC
CC(C)/N=c1\cc2n(-c3ccc(Cl)cc3)c3ccccc3nc-2cc1Nc1ccc(Cl)cc1,bacterial growth,clinical isolate,,,3.75 µM
